Measurements pooled from the literature.
A part holds a random share of what one study measured. Substitutions count along the parent as printed.

Set 1 — cell line: yeast with cyclin E2-Cln2 chimera; observed: cell growth; mode: binder; technique: competitive growth deep sequencing; molecule type: peptide; tested at: concentration not given; setting: peptide tiling library; direction: direction not given
For `GLPDFVFQQQPVESEA`, “growth enrichment score” read 0.0901.
Under “growth enrichment score”, `RSLKLDGLLEEN` is recorded as -0.179.
For `LRRKLFLDGNGSIS`, “growth enrichment score” read 0.0945.
Under “growth enrichment score”, `KPHVSDEEEEEPPFYH` is recorded as 0.359.
For `QYQVVDDIVSKLVFDF`, “growth enrichment score” read 0.374.
Under “growth enrichment score”, `DVSERGYVILPNDYFE` is recorded as -0.109.
For `AKRSLGFLPQPVPL`, “growth enrichment score” read 0.587.
`ESSTVSEEDYFSSHRD` — result for “growth enrichment score”: 1.14.
`VEEEFFALRKRTPSAG`: “growth enrichment score” 0.337.
`EPKTLFLGAGDFQF` — result for “growth enrichment score”: 0.675.
`DKYDEGLYRFNSLNDL`: “growth enrichment score” -0.0685.
Under “growth enrichment score”, `ALLRRLQDVANDRGSH` is recorded as 0.945.
Under “growth enrichment score”, `CFRCLLFSFSGRSGVE` is recorded as -0.178.
For `ARKRLELGNLGNPQ`, “growth enrichment score” read -0.722.
For `IQKKLRFEDTLEFVGF`, “growth enrichment score” read -0.0426.
Under “growth enrichment score”, `EAAPPTQEAQGETEPT` is recorded as 0.611.
`KPKPVKPVTFSTGIKM` — result for “growth enrichment score”: 0.292.
`RDLFDCDFGDLTPLDF` — result for “growth enrichment score”: 0.594.

Set 2 — technique: aptamer microarray, sandwich; molecule type: DNA with 2'F-ANA; medium: in vitro; tested at: 200 nM; added: Cy3 exosite-II aptamer, 400 nM; direction: higher = stronger binding; oligonucleotide: GGTTGGTGTGGTTGG
Target: Prothrombin, mature alpha-thrombin (F2, Homo sapiens, UniProt P00734)
Setting: whole 15-mer aptamer, many near background
`2'F-ANA at 2 5 6 7 8 11 12 13` — result for “mean fluorescence intensity”: 105 a.u.
For `2'F-ANA at 4 7 8 11 12 13 15`, “mean fluorescence intensity” read 428 a.u.
`2'F-ANA at 3 4 10 12` — result for “mean fluorescence intensity”: 366 a.u.
`2'F-ANA at 1 7 8 9 10 14 15` — result for “mean fluorescence intensity”: 70.7 a.u.
Under “mean fluorescence intensity”, `2'F-ANA at 2 3 5 6 7 8 9 11 12` is recorded as 177 a.u.
For `2'F-ANA at 6 8 13 14`, “mean fluorescence intensity” read 180 a.u.
For `2'F-ANA at 1 4 5 6 7 8 10 11 12 15`, “mean fluorescence intensity” read 66.9 a.u.
Under “mean fluorescence intensity”, `2'F-ANA at 5 6 7 8 9 12 15` is recorded as 165 a.u.
For `2'F-ANA at 6 10 12 14 15`, “mean fluorescence intensity” read 113 a.u.
Under “mean fluorescence intensity”, `2'F-ANA at 1 2 3 8 9 10 12 13` is recorded as 84.1 a.u.
Under “mean fluorescence intensity”, `2'F-ANA at 1 5 8 11 12 14 15` is recorded as 49.7 a.u.
`2'F-ANA at 4 6 8 11 12 13 15` — result for “mean fluorescence intensity”: 300 a.u.
Under “mean fluorescence intensity”, `2'F-ANA at 1 2 3 6 7 14` is recorded as 66.1 a.u.
For `2'F-ANA at 4 6 8 10 13 14 15`, “mean fluorescence intensity” read 56.6 a.u.
For `2'F-ANA at 3 4 5 6 7 10 12 13 14 15`, “mean fluorescence intensity” read 66.9 a.u.
`2'F-ANA at 1 2 3 5 6 7 12 13 15`: “mean fluorescence intensity” 81.2 a.u.
`2'F-ANA at 2 4 5 6 7 9 10 11 12 15`: “mean fluorescence intensity” 51.6 a.u.
`2'F-ANA at 2 4 5 7 10 11 12 13`: “mean fluorescence intensity” 48.8 a.u.
`2'F-ANA at 2 4 5 7 10 11 12 14 15` — result for “mean fluorescence intensity”: 45.1 a.u.
`2'F-ANA at 2 4 5 6 8 10 12 14`: “mean fluorescence intensity” 48.4 a.u.

Set 3 — technique: universal PBM; molecule type: double-stranded DNA, one strand shown; medium: in vitro; tested at: not given; direction: higher = stronger binding
Target: Sal-like protein 4, full length isoform B (SALL4, Homo sapiens, UniProt Q9UJQ4-2, residues 1-616)
Setting: 8-mer, flanks averaged, mean of replicates
With `ACCAAGGG` the E-score was -0.0827.
`AACTTGCC` has an E-score of -0.0662.
With `AAGTACCG` the E-score was 0.0138.
`AGAGGCTA` has an E-score of -0.0529.
With `CCCCTGTC` the E-score was -0.273.
With `CATGAGAC` the E-score was 0.0462.
`AAAAGACT` gave an E-score of 0.0912.
For `ACCGGACT`, the E-score was -0.188.
`CGAGATAC` gave an E-score of 0.159.
With `TGCAATAA` the E-score was 0.309.
With `TCTTCAAA` the E-score was 0.193.
With `ACTCGGAA` the E-score was -0.0415.
With `AAAAAGCA` the E-score was 0.134.
For `ATGGTGCC`, the E-score was -0.216.
`CTCGCGGC` gave an E-score of -0.369.
`GTCCCTCA` has an E-score of -0.14.
`TAATGTAA` gave an E-score of 0.294.
For `ACACCGGC`, the E-score was -0.223.
With `AAATAGGC` the E-score was 0.139.
The E-score of `ATGTCTAG` is reported as 0.22.
`ACCTCGAG` has an E-score of -0.0213.

Set 4 — technique: DHFR PCA, deep sequencing; medium: yeast; added: (+)-ABA 17 µM; reference: wild-type fitted maximum; direction: higher = stronger binding
Target: ABI1, truncated, D143A, DHFR fusion (Arabidopsis thaliana)
Setting: methotrexate growth selection, single substitutions
Starting sequence: PYL1, truncated, DHFR fusion (Arabidopsis thaliana); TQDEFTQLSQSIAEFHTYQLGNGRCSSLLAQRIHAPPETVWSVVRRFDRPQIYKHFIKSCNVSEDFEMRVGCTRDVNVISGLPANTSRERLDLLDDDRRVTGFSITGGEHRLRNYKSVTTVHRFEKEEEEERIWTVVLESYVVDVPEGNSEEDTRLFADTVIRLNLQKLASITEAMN; partner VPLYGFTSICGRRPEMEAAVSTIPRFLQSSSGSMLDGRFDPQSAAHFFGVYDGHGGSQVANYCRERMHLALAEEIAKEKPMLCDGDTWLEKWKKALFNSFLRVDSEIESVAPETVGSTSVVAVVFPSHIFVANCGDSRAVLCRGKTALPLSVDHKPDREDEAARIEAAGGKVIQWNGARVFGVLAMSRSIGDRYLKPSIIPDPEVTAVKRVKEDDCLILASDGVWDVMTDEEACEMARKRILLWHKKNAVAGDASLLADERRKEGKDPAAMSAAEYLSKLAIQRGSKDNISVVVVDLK
Under “relative binding score”, `F47T` is recorded as -10.5%.
Under “relative binding score”, `N61M` is recorded as 86.7%.
For `T106W`, “relative binding score” read 50.1%.
`L82N` — result for “relative binding score”: -1.49%.
For `L94I`, “relative binding score” read 82.3%.
For `L8R`, “relative binding score” read 31.2%.
`T86Y`: “relative binding score” 77%.
Under “relative binding score”, `T39N` is recorded as 69.2%.
For `N61T`, “relative binding score” read 91.4%.
For `V100S`, “relative binding score” read 26.3%.
`L29E` — result for “relative binding score”: -4.77%.
Under “relative binding score”, `R69P` is recorded as -9.44%.
For `S26T`, “relative binding score” read 84.8%.
`R99E`: “relative binding score” -11.8%.
`V136M` — result for “relative binding score”: 103%.
`H110Y`: “relative binding score” 10.1%.
`A13V` — result for “relative binding score”: 73.9%.
Under “relative binding score”, `T17C` is recorded as 62.7%.
`H16K` — result for “relative binding score”: -17.9%.
`W134I`: “relative binding score” 95.5%.
Under “relative binding score”, `E38Y` is recorded as 16.5%.
`Q7R` — result for “relative binding score”: 80.6%.

Set 5 — technique: RNA Bind-n-Seq; molecule type: RNA; medium: in vitro; tested at: 365 nM; reference: no-protein control; direction: higher = stronger binding
Target: RNA binding protein fox-1 homolog 2, RRM domain, GST-SBP tag (RBFOX2, Homo sapiens, UniProt O43251-10, residues 100-194)
Setting: natural RNA segment, single round, ends assumed
All sequences stand within: GGGAGUUCUACAGUCCGACGAUC … UGGAAUUCUCGGGUGCCAA
Target sequence (chain): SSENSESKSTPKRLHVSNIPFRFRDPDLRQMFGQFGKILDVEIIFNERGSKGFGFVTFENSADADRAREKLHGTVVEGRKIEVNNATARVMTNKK
Under “RBNS enrichment (R)”, `GAAGACUCAGGAAUGGUGUGCAUUAUAAAUGACACACAUUGCCACUUGUGUAGAUAUUUUUAAGUUCUUUGGCUAAGUCCUCUCCUAACUGCCUGUCCUCUGGUUAGGCC` is recorded as 0.956.
`UUGCUUUUGGGCAGAAAAAAGUAGUGAAUAGCAGCGGAGAAAAGAGGAGGCACCCUUGAAUGACUGCAGACCAGCUGUGGGCACUCGCUGCUCCUCCAGGAAAGGGUGAG`: “RBNS enrichment (R)” 1.03.
Under “RBNS enrichment (R)”, `UAUCCUCUGUAUUUGUCAUUCCUCUCCUAGCCCUCCUGAGGGGUAUCCUCCUAAAGACCUCCAAAGUUUUUAUGGAAGGGUAAAUACUGGUACCUUCCCCCAGCUUUCCA` is recorded as 0.308.
`UCUCGAUUUUGUUCUGAGGGUUUAUGAACUCAUUGAGAACCAGGAUUCCUUGAGACUCUUUAGCAUUAGUGCUCUGAGGUUAAAAGCAGUUCGGAAGACUCAUCUAGCCC`: “RBNS enrichment (R)” 0.31.
Under “RBNS enrichment (R)”, `CACCAAGAGGGACGCCUGGGGGUGCCAGGACCAGUCAACCUGGGCAAAGCCUAGUGAAGGCUUCUCUCUGUGGGAUGGGAUGGUGGAGGGCCACAUGGGAGGCUCACCCC` is recorded as 0.377.
`CUACCCAGAGCAUUCAGCUUGGGACUGUCGUCCAGUGCAGGGCCCAGGUGAGAGGAGACUGCCAGCGAGUCCCUAGAUCUUGUAGCCAUGAUACCACACAGUCAUUUCCC` — result for “RBNS enrichment (R)”: 0.464.
`ACUUAAGACAGCAGAGCACCUUAUAAUAACAGUCCUUGGGUAUGAUUUAAAAUAAAAUUUAAAAUUCAAGUUUUUGGGGGGGUCUUUGUUGUUCUACUCAGUCAUCCAGC`: “RBNS enrichment (R)” 0.64.
For `AUCACAAGGAUAAUAGAGUAGCCUAAAAUUACUAUUCUUGGUUCUUAUUUAAGUAUGGAAUAUUCAUUUUACUCAGAAUAGCUGUUUUGUGUAUAUUGGUGUAUAUUAUA`, “RBNS enrichment (R)” read 0.32.

Some of these lines once more (set 2):
Under “mean fluorescence intensity”, `2'F-ANA at 1 2 3 6 7 14` is recorded as 66.1 a.u.
`2'F-ANA at 3 4 10 12` — result for “mean fluorescence intensity”: 366 a.u.
`2'F-ANA at 2 5 6 7 8 11 12 13` — result for “mean fluorescence intensity”: 105 a.u.
`2'F-ANA at 2 4 5 7 10 11 12 13`: “mean fluorescence intensity” 48.8 a.u.
For `2'F-ANA at 4 7 8 11 12 13 15`, “mean fluorescence intensity” read 428 a.u.
`2'F-ANA at 1 2 3 5 6 7 12 13 15`: “mean fluorescence intensity” 81.2 a.u.
`2'F-ANA at 2 4 5 6 8 10 12 14`: “mean fluorescence intensity” 48.4 a.u.
For `2'F-ANA at 4 6 8 10 13 14 15`, “mean fluorescence intensity” read 56.6 a.u.
For `2'F-ANA at 1 4 5 6 7 8 10 11 12 15`, “mean fluorescence intensity” read 66.9 a.u.
`2'F-ANA at 2 4 5 6 7 9 10 11 12 15`: “mean fluorescence intensity” 51.6 a.u.
